Assay results from different studies.
Lines come from different studies, so protocols differ. Numbers after ± are the reported error. Values after ≈ are worked out from the molar mass of the structure shown.
SCRIB PDZ3 domain: Protein scribble homolog, PDZ3 domain (SCRIB, Homo sapiens, UniProt Q14160)
UniProt Q14160, sequence (whole entry, looked up): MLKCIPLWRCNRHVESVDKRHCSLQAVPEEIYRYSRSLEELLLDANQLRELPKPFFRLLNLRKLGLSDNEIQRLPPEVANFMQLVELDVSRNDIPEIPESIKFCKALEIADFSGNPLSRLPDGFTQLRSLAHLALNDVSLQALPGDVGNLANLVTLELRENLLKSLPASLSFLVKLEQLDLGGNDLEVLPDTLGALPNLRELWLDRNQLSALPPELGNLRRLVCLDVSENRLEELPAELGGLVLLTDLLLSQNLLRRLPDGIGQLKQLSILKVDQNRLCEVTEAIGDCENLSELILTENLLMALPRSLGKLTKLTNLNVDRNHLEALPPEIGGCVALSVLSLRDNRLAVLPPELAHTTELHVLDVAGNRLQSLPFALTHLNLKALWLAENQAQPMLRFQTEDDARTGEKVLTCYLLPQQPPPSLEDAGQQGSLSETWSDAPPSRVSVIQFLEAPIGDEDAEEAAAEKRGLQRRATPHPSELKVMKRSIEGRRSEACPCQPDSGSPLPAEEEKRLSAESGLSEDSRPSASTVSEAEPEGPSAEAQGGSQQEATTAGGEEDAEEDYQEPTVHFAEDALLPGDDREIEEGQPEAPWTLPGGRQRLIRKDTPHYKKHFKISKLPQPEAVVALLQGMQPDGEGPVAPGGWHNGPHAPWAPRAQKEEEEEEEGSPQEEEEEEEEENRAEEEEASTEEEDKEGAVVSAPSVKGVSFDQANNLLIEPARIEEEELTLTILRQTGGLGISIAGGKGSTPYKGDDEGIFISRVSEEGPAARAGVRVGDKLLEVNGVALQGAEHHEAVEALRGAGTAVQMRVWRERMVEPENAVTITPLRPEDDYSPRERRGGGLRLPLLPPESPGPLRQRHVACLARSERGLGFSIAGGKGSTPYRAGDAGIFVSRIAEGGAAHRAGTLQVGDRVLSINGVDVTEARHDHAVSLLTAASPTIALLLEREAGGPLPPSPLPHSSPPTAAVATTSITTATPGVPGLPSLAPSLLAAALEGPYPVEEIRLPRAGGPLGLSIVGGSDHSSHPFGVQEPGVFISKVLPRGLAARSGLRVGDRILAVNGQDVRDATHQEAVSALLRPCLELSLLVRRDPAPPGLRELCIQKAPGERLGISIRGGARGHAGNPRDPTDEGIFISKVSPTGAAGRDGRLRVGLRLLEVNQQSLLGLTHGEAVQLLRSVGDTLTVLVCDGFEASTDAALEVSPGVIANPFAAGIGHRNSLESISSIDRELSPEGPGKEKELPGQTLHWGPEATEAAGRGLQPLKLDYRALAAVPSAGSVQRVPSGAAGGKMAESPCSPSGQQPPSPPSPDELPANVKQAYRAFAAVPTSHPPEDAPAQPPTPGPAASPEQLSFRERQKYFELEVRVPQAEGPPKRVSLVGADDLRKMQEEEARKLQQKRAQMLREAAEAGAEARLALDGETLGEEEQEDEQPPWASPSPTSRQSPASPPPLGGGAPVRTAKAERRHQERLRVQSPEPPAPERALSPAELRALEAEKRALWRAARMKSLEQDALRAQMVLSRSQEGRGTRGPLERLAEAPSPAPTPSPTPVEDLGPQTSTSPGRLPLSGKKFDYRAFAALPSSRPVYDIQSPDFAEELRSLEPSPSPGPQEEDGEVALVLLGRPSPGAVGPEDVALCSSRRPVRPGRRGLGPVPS
UniProt P08684, sequence (whole entry, looked up): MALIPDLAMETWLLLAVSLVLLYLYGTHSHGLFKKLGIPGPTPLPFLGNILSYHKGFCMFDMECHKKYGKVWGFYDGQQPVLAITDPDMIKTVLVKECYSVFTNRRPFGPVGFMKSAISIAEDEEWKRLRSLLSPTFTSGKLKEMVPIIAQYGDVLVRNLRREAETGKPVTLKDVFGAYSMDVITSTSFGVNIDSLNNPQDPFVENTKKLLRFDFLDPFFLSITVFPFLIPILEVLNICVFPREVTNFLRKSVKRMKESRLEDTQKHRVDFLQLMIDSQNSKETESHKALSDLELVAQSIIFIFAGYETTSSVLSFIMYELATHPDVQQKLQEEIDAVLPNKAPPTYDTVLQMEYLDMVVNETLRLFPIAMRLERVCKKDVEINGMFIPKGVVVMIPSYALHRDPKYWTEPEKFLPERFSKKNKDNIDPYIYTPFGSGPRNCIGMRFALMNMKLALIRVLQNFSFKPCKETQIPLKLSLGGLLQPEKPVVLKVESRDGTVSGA
UniProt P16662, sequence (whole entry, looked up): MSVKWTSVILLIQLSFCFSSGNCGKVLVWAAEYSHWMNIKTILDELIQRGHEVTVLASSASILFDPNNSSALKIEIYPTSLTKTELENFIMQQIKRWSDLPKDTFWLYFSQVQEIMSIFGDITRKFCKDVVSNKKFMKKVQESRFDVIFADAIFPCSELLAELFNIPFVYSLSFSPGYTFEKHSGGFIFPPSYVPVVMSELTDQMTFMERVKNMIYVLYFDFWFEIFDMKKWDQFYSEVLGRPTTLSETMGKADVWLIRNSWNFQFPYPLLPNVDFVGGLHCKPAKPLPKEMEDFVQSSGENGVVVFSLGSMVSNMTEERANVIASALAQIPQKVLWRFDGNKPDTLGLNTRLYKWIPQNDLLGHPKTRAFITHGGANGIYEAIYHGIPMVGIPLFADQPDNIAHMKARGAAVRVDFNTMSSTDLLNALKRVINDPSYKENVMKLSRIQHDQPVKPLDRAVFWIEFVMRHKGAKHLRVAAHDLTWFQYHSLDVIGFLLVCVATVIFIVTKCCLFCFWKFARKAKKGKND
UniProt P47900, sequence (whole entry, looked up): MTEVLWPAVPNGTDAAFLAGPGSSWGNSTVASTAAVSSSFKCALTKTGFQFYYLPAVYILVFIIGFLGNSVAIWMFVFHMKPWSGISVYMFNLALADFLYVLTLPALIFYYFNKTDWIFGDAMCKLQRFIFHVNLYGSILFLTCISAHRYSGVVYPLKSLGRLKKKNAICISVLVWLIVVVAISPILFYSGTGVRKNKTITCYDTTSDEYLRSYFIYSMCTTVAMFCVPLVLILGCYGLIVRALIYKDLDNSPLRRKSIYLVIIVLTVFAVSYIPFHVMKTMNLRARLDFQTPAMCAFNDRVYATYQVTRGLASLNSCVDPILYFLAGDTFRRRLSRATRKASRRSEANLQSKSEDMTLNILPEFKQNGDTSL
UniProt Q16538, sequence (whole entry, looked up): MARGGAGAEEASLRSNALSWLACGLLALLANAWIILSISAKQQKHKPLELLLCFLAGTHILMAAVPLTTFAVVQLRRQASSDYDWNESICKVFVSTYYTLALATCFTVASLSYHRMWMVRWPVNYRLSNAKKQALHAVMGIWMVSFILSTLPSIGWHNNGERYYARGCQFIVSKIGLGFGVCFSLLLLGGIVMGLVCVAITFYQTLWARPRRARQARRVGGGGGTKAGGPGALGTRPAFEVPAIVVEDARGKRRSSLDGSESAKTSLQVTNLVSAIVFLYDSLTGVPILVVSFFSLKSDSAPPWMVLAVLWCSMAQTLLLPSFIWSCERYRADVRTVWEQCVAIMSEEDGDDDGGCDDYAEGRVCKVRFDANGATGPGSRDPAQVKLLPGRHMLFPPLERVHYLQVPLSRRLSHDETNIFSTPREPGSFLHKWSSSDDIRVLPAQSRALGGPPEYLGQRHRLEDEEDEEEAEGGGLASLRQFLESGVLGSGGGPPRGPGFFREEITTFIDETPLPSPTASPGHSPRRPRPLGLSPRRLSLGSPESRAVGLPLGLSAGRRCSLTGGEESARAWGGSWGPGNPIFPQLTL

O=C1c2c(O)c(=O)ccn2N([C@@H]2c3ccccc3SCc3c2ccc(F)c3F)[C@@H]2COCCN12  plasma concentration (BALB/c mice, plasma; oral, 50 mg/kg baloxavir marboxil, 6 h): 102 ng/mL
Cc1ncc2n1-c1ccc(Cl)cc1C(c1ccccc1F)=NC2  clearance (wild-type mice, plasma; intravenous, 0.3 mg/kg, together with: 3-day PB, BC 500 mg/kg and PCN 10 mg/kg): 363 ± 51 mL/min
Cc1cc(C(=O)NC(C)(C)COc2cccc3c2C(N)=NS(=O)(=O)N3)cc(C)n1  revertant ratio (Escherichia coli; Ames test, confirmatory; WP2 uvrA; 333 µg/plate, together with: rat liver S9; baseline: solvent control): 1.1
[Cl-].[Cl-].[Pt+2].[Ru+2].c1ccc(-c2nc3cc4ccccc4cc3nc2-c2ccccn2)nc1.c1cnc2c(c1)ccc1cccnc12.c1cnc2c(c1)ccc1cccnc12  hatching rate (Danio rerio; embryos; 75 µM, 72 h): 10 ± 5.2%
C[C@@H](O)[C@@H](CO)NC(=O)[C@@H](CCCNC(=N)N)NC(=O)[C@@H]1CCCN1C(=O)[C@@H]1CSSC[C@H](NC(=O)[C@H](Cc2ccccc2)NC(=O)CN2CCN(CC(=O)O)CCN(CC(=O)O)CCN(CC(=O)O)CC2)C(=O)N[C@@H](Cc2ccc(O)cc2)C(=O)N[C@@H](Cc2ccccc2)C(=O)N[C@@H](CCC(N)=O)C(=O)N[C@@H](CC(N)=O)C(=O)N1 [gallium-68 labelled]  radiochemical purity (human serum; 0 h, 37 °C): > 99%
Cc1ncc2n1-c1ccc(Cl)cc1C(c1ccccc1F)=NC2  AUC(0-t) (Cytochrome P450 3A4 (CYP3A4, Homo sapiens, UniProt P08684); human, plasma; oral, 2 mg, day 1, alone, geometric mean): 19.7 ng·h/mL
NC(=O)C1(N2CCCCC2)CCN(CCCN2c3ccccc3CCc3ccccc32)CC1  CC50 (African green monkey cells; 5 days): 8.61 µM
COC(=O)[C@H]1[C@@H](OC(=O)c2ccccc2)C[C@@H]2CC[C@H]1N2C  stability bias (rat, whole blood; 1000 nM, 4 freeze-thaw cycles): -0.16%
COc1cc2c(cc1OC)C(c1cccc(Cl)c1)=NN=C(C)C2  CC50 (African green monkey cells; 5 days): > 100 µM
N=C(N)NCCC[C@H](NC(=O)[C@@H](Cc1ccccc1)NC(=O)[C@H](Cc1c[nH]cn1)NC(=O)CCCc1ccccc1)C(=O)N[C@@H](Cc1c[nH]c2ccccc12)C(=O)NCC(=O)N[C@@H](CCCCNC(=O)CCCCCNC(=O)CN1CCN(CC(=O)O)CCN(CC(=O)O)CCN(CC(=O)O)CC1)C(N)=O [actinium-225 labelled]  liver elimination rate constant (kle) (five-compartment model fit; SCID mice, A-375 and A-375/MC1R xenografts): 0.0002 h⁻¹
CN1CC[C@]23c4c5ccc(O)c4O[C@H]2[C@@H](O[C@@H]2O[C@H](C(=O)O)[C@@H](O)[C@H](O)[C@H]2O)C=C[C@H]3[C@H]1C5  stability bias (rat, whole blood; 10 nM, 4 freeze-thaw cycles): 9.83%
COc1ncnn2ccc(-c3cnc4nc(C)n(Cc5nnc([C@@H](C)F)o5)c4c3)c12  patients with taste disorder (human; oral, dose not given, grade 2): 7.1%
O=C(NCc1cccnc1)Nc1ccc([N+](=O)[O-])cc1  degeneration index difference (mouse DRG neurons; neurite degeneration; 50 µM, 48 h; baseline: vehicle): 64.9
COc1cccc(-c2n[nH]c(SCc3ccccn3)n2)c1OC  revertant colonies per plate (Salmonella typhimurium; Ames test, preincubation; TA1535; 0.13 mg/plate, with rat liver S9): 15
CC(=O)O[C@H]1C=C[C@H]2[C@H]3Cc4ccc(O)c5c4[C@@]2(CCN3C)[C@H]1O5  stability bias (rat, whole blood; 1000 nM, 4 months, -80 °C, long-term storage): 1.69%
CC(C)CC(=O)OC[C@H]1O[C@@](C#N)(c2ccc3c(N)ncnn23)[C@H](O)[C@@H]1O  Papp B to A (ATP-dependent translocase ABCB1 (ABCB1, Homo sapiens, UniProt P08183); Caco-2; 90 µM, 2 h): 1.9 ×10⁻⁶ cm/s
CN1CC[C@@H](c2c(O)cc(O)c3c(=O)cc(-c4ccc(C(F)(F)F)cc4Cl)oc23)[C@@H]1CO  patients with adverse event (refers to: Epistaxis; B-cell malignancies; oral, 100 mg, intermittent dosing): 0%
O=[N+]([O-])c1ccc(N2CCN(CCC(O)c3ccc(F)cc3)CC2)c(C(F)(F)F)c1 (stereo not shown)  survival (Salmonella typhimurium; SOS/umu test; TA1535/pSK1002; 0.001 mg/mL, 4 h, without S9, lower range): 108%
CO[C@H]1C[C@@H]2CC[C@@H](C)[C@@](O)(O2)C(=O)C(=O)N2CCCC[C@H]2C(=O)O[C@H]([C@H](C)C[C@@H]2CC[C@@H](OC(=O)NCCOCCOCCOCCOCCOCCOCCOCCOCCC(=O)N3CCc4cc(Cn5nc(-c6ccc7oc(N)nc7c6)c6c(N)ncnc65)ccc4C3)[C@H](OC)C2)C[C@@H](O)[C@H](C)/C=C(\C)[C@@H](O)[C@@H](OC)C(=O)[C@H](C)C[C@H](C)/C=C/C=C/C=C/1C  deaths due to TRAEs (phase 1 dose escalation; advanced solid tumour patients; intravenous, 12 mg weekly, grade ≥3): 0%
CCCCN(CCCC)CCC(O)c1cc2c(Cl)cc(Cl)cc2c2cc(C(F)(F)F)ccc12 (stereo not shown)  CC50 (African green monkey cells; 5 days): 15.1 µM
CC[C@H](C)[C@@H]1NC(=O)[C@@H]2CCCN2C(=O)[C@H](CC(C)C)NC(=O)[C@H](CC(C)C)NC(=O)CNC(=O)[C@@H](NC(=O)[C@@H](NC(=O)[C@H](CC(=O)O)NC(=O)CNC(=O)[C@@H](NC(=O)[C@H](C)NC(=O)CNC(=O)[C@H](CCCCN)NC(=O)[C@H](CC(C)C)NC(=O)[C@H](CC(C)C)NC(=O)[C@H](CCCCN)NC(=O)CNC(=O)[C@@H](NC(=O)[C@@H](N)CC(C)C)C(C)C)C(C)C)C(C)C)CSSC[C@@H](C(=O)O)NC1=O  log2 fold change (RNA-seq, refers to: Tmprss6; mouse, traumatic brain injury model, frontal cortex and hippocampus; dose not given; baseline: TBI alone): -2.73
CN1CC[C@]23c4c5ccc(O[C@@H]6O[C@H](C(=O)O)[C@@H](O)[C@H](O)[C@H]6O)c4O[C@H]2[C@@H](O)C=C[C@H]3[C@H]1C5  stability bias (rat, whole blood; 1000 nM, 4 months, -80 °C, long-term storage): 2.88%
Oc1ccc2c3c1O[C@H]1[C@@H](O)CC[C@@]4(O)[C@@H](C2)N(CC2CCC2)CC[C@]314  log2 fold change (Probable G-protein coupled receptor 162 (GPR162, Homo sapiens, UniProt Q16538); β-arrestin recruitment, TANGO luminescence, refers to: GPR162; concentration not given; baseline: basal luminescence): 0.278
CC(C)[C@@H]1NC(=O)[C@H](Cc2ccccc2)NC(=O)[C@@H]2NC(=O)[C@H](Cc3ccccc3)NC(=O)[C@@H]3CCCN3C(=O)CNC(=O)[C@H](Cc3ccccc3)NC(=O)[C@@H]3CNCCCC[C@@H](C(=O)O)NC(=O)[C@@H]4NC(=O)[C@H](CC(N)=O)NC(=O)CNC(=O)[C@H]([C@@H](O)C(=O)O)NC(=O)[C@H](CSC[C@@H](NC(=O)[C@H](CCC(N)=O)NC(=O)[C@H](CCCCNC(=O)c5ccc(NN)nc5)NC(=O)[C@@H](N)CS[C@H]4C)C(=O)N[C@@H](CS[C@H]2C)C(=O)N3)NC1=O [technetium-99m labelled]  tissue uptake (rat, saline control, blood; intravenous, 2 h after tracer, tracer 2 h after reperfusion): 0.2 ± 0.02 %ID/g
CC[C@H](C)[C@H](NC(=O)[C@H](C)NC(=O)[C@H](CCCCN)NC(=O)[C@H](CC(C)C)NC(=O)[C@H](C)NC(=O)[C@@H](NC(=O)[C@H](Cc1c[nH]cn1)NC(=O)[C@H](CC(C)C)NC(=O)[C@@H](NC(=O)[C@@H](NC(=O)[C@H](CCCCN)NC(=O)[C@H](C)NC(=O)[C@H](C)NC(=O)[C@H](CO)NC(=O)[C@H](CCCCN)NC(=O)[C@H](Cc1ccccc1)NC(=O)[C@@H](NC(=O)[C@H](CCCCN)NC(=O)[C@H](CC(C)C)NC(=O)[C@H](Cc1ccccc1)NC(=O)[C@H](CO)NC(=O)[C@H](CCCCN)NC(=O)[C@H](Cc1c[nH]c2ccccc12)NC(=O)[C@H](CCCCN)NC(C)=O)[C@@H](C)O)[C@@H](C)O)C(C)C)[C@@H](C)O)C(=O)N[C@@H](CO)C(=O)N[C@@H](CO)C(N)=O  MBC50 (Enterococcus faecalis; 40 strains): 16 µg/mL (≈ 5.45 µM)
CN1CCN(CCCN2c3ccccc3Sc3ccccc32)CC1  CC50 (African green monkey cells; 5 days): 14.6 µM
[Cl-].[Cl-].[Pt+2].[Ru+2].c1ccc(-c2nc3ccccc3nc2-c2ccccn2)nc1.c1cnc2c(c1)ccc1cccnc12.c1cnc2c(c1)ccc1cccnc12  survival rate (Danio rerio; embryos; 90 µM, 0 h): 100%
O=C(O)c1cn(Cc2ccc(F)cc2)c2ccccc12  CLint ratio (UDP-glucuronosyltransferase 2B7 (UGT2B7, Homo sapiens, UniProt P16662); glucuronidation, recombinant enzyme; baseline: UGT1A10 over UGT2B7): 20 fold
COc1cc2c(Oc3ccc4[nH]c(C)cc4c3F)ccnc2cc1OCC1(N)CC1  grade 3 Headache (paediatric recurrent refractory sarcoma; 12 mg): 0%
O=c1ccc2ccccc2o1  chance response (NHEK; cell count; concentration not given, 6 h, pH2AX and pH3 panel): 0.05%
CSCC[C@H](NC(=O)[C@H](Cc1ccccc1)NC(=O)[C@H](C)NC(=O)[C@@H](N)Cc1c[nH]c2ccccc12)C(=O)N[C@@H](CCCNC(=N)N)C(=O)N[C@@H](Cc1ccc(O)cc1)C(=O)N[C@@H](CCCNC(=N)N)C(=O)N[C@@H](CCC(N)=O)C(=O)N[C@@H](CCC(N)=O)C(=O)N[C@@H](CC(C)C)C(=O)O  Kd (SCRIB PDZ3 domain; binding, fluorescence polarization; solution; Scribble PDZ3 domain): 32 µM
Cc1ccc(C(=O)Oc2ccc(C(O)CNC(C)(C)C)cc2OC(=O)c2ccc(C)cc2)cc1 (stereo not shown)  CC50 (African green monkey cells; 5 days): 5.69 µM
COc1cc(Nc2ncc(F)c(Nc3ccc4c(n3)NC(=O)C(C)(C)O4)n2)cc(OC)c1OC  IC50 (Urokinase-type plasminogen activator (PLAU, Homo sapiens, UniProt P00749); Urokinase): > 10 µM
CSCC[C@H](N)C(=O)N[C@@H](CCC(=O)O)C(=O)N[C@@H](CCCNC(=N)N)C(=O)N[C@@H](CC(C)C)C(=O)N[C@@H](CCCNC(=N)N)C(=O)N[C@H](C(=O)N[C@@H](CCC(=O)O)C(=O)N[C@H](C(=O)N[C@@H](CC(=O)O)C(=O)N[C@H](C(=O)O)C(C)C)[C@@H](C)O)C(C)C  Kd (SCRIB PDZ3 domain; binding, fluorescence polarization; solution; Scribble PDZ3 domain): 2.1 µM
CC1=C(/C=C/C(C)=C/C=C/C(C)=C/C(=O)Nc2ccc(O)cc2)C(C)(C)CCC1  CC50 (African green monkey cells; 5 days): 5.01 µM
CC(=O)Oc1ccc2c3c1O[C@H]1[C@@H](OC(C)=O)C=C[C@H]4[C@@H](C2)N(C)CC[C@@]341  stability bias (rat, whole blood; 1000 nM, 4 months, -80 °C, long-term storage): -7.82%
Cc1cc2cc(Oc3ccnc(Nc4cccc(CS(=O)(=O)NCCN(C)C)c4)n3)ccc2[nH]1  CC50 (African green monkey cells; 5 days): 4.9 µM
CN1CCN(c2cc(-c3ccncc3)c(-c3ccc4ccccc4c3)nn2)CC1  activation (P2Y purinoceptor 1 (P2RY1, Homo sapiens, UniProt P47900); agonist, FLIPR calcium; 12.5 µM): -4.6%
CN1[C@H]2CC[C@@H]1[C@@H](C(=O)O)[C@@H](OC(=O)c1ccccc1)C2  stability bias (rat, whole blood; 10 nM, 4 months, -80 °C, long-term storage): -15.7%
CCCCCCC(C)(C)c1cc(O)c2c(c1)OC(C)(C)C1CCC(=O)CC21 (stereo not shown)  CC50 (African green monkey cells; 5 days): 11.1 µM

Repeated from above:
CN1CC[C@]23c4c5ccc(O)c4O[C@H]2[C@@H](O[C@@H]2O[C@H](C(=O)O)[C@@H](O)[C@H](O)[C@H]2O)C=C[C@H]3[C@H]1C5  stability bias (rat, whole blood; 10 nM, 4 freeze-thaw cycles): 9.83%
CCCCCCC(C)(C)c1cc(O)c2c(c1)OC(C)(C)C1CCC(=O)CC21 (stereo not shown)  CC50 (African green monkey cells; 5 days): 11.1 µM
NC(=O)C1(N2CCCCC2)CCN(CCCN2c3ccccc3CCc3ccccc32)CC1  CC50 (African green monkey cells; 5 days): 8.61 µM
